{"data": "Results from different studies", "note": "A part holds a random share of what one study measured. Several values in a cell are separate wells, animals, samples, runs or records.", "chain of UniProt Q16539 (whole entry, looked up)": "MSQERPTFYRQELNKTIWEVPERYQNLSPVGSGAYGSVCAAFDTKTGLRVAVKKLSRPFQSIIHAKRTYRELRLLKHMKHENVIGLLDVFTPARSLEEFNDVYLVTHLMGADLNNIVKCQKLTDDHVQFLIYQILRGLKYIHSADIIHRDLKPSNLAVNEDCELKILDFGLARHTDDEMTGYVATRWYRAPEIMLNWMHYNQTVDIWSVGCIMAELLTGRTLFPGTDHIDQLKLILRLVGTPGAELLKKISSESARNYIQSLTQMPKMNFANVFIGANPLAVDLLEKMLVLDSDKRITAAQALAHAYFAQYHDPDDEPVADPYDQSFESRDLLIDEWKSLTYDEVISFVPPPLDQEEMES", "chain of UniProt Q9BYT3 (whole entry, looked up)": "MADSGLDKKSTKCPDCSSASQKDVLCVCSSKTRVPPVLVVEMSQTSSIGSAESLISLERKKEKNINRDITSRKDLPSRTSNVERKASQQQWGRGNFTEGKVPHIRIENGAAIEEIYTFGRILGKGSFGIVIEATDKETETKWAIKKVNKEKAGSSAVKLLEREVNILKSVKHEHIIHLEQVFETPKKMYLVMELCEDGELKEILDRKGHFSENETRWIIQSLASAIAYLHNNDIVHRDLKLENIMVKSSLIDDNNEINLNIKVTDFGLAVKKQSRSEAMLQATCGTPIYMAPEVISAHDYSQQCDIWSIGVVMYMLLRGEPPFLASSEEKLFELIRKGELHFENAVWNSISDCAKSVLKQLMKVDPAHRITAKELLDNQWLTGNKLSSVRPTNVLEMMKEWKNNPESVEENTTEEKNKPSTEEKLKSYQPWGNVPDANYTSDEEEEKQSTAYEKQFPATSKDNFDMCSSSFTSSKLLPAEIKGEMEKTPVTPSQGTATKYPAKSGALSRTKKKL", "chain of UniProt Q9H4B4 (whole entry, looked up)": "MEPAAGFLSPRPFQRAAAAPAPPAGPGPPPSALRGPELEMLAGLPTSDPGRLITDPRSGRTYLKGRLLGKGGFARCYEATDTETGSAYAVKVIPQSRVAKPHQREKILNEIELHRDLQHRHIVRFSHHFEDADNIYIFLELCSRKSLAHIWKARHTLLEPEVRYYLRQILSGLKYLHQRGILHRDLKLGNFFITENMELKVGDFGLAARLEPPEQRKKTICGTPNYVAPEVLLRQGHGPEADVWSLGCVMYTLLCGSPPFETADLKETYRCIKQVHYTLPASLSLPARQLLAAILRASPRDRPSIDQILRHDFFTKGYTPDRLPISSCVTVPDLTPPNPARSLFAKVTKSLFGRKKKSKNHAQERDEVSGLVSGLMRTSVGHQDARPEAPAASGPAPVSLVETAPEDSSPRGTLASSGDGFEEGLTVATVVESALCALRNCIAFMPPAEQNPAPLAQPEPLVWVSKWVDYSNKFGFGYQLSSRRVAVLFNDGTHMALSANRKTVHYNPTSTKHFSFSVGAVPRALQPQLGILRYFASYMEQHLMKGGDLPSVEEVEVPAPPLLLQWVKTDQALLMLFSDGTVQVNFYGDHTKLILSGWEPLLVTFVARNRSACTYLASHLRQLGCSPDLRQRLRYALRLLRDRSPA", "chain of UniProt O75676 (whole entry, looked up)": "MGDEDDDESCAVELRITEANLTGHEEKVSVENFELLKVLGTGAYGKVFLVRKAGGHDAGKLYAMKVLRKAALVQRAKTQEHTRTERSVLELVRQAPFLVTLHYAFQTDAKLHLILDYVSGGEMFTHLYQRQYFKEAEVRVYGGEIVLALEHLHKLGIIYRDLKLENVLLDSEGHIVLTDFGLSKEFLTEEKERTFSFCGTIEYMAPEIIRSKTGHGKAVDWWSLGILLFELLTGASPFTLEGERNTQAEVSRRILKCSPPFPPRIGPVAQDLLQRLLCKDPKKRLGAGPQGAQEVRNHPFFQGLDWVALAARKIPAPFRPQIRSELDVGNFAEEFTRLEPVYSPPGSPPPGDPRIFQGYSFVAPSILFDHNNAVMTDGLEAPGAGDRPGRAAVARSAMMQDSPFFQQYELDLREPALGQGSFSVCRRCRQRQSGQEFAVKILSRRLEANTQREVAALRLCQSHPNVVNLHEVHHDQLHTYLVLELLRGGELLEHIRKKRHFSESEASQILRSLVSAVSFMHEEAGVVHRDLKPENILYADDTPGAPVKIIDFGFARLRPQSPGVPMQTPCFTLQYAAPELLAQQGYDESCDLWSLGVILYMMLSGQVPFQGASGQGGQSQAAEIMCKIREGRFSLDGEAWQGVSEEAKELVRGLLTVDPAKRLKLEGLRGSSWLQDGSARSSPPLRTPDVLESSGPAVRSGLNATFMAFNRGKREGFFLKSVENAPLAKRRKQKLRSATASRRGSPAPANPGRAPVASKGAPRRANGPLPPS", "chain of UniProt Q9UL54 (whole entry, looked up)": "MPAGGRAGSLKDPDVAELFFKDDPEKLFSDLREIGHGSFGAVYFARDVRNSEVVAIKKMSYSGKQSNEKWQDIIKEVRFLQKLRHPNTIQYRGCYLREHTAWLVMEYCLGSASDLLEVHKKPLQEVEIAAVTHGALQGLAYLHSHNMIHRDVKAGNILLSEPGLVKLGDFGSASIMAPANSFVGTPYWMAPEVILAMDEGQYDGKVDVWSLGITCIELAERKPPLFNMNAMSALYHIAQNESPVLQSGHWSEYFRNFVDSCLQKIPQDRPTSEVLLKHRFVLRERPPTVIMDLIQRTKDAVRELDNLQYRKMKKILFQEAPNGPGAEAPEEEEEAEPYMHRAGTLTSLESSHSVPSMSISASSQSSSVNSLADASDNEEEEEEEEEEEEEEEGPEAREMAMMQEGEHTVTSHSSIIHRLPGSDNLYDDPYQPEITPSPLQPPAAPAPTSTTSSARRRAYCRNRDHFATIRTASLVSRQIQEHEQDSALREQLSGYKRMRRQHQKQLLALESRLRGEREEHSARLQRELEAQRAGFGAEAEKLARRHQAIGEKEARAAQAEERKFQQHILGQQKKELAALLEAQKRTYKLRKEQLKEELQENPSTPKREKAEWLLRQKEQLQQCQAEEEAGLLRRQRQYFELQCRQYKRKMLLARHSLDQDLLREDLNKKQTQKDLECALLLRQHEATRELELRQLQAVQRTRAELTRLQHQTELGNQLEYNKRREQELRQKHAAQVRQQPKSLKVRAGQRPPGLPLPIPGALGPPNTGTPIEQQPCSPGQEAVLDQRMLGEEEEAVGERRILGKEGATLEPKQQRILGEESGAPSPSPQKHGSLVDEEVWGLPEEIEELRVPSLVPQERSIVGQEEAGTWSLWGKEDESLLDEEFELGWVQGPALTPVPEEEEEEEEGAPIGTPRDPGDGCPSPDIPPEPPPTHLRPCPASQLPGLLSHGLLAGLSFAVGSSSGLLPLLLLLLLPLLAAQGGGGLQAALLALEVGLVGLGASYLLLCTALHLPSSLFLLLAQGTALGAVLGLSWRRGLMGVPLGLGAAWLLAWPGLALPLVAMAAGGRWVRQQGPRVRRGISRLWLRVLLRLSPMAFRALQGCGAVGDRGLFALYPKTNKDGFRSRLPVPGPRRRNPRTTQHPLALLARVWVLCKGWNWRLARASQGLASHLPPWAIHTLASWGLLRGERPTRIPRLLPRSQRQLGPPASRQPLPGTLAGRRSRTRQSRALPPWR", "chain of UniProt P21127 (whole entry, looked up)": "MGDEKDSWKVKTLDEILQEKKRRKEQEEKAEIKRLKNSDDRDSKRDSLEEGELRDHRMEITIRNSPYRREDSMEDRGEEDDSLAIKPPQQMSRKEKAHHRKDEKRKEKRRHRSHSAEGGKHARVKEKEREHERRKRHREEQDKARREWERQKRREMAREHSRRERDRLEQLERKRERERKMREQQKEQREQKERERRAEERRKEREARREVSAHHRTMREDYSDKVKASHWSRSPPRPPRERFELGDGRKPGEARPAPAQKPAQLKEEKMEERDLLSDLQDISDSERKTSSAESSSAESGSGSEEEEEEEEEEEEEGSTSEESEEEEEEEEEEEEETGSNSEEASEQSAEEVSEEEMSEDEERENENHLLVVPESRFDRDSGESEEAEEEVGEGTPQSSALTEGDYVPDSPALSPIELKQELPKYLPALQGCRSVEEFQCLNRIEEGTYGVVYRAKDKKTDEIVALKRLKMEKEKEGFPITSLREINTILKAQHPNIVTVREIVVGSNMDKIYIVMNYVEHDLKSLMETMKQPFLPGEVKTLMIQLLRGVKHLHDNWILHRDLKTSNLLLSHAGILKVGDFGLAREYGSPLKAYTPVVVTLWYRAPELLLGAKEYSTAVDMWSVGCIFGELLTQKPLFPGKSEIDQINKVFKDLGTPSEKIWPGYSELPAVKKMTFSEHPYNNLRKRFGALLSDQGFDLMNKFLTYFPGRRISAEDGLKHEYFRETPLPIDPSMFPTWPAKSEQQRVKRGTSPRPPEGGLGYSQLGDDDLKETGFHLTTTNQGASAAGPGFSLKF", "chain of UniProt Q9HAZ1 (whole entry, looked up)": "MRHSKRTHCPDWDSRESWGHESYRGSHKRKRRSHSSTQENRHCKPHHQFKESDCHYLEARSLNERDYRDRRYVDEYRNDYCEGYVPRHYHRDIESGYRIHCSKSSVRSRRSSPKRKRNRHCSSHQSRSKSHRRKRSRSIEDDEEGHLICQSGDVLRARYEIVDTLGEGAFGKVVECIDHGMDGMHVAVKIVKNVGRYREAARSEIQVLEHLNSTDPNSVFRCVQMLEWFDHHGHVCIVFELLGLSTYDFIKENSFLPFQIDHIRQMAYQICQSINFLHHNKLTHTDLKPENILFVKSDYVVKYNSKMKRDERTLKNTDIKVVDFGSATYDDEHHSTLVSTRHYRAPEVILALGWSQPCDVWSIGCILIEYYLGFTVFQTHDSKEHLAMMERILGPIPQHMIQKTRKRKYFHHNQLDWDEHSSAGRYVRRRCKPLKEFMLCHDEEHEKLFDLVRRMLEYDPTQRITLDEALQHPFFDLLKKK"}
{"data": "Set 1", "cell line": "HaCaT", "concentration": "100 µM", "time": "18 h"}
{"SMILES": "COc1cccc2c1C(=O)c1c(O)c3c(c(O)c1C2=O)C[C@@](O)(C(=O)CO)C[C@@H]3O[C@H]1C[C@H](N)[C@H](O)[C@H](C)O1", "viability [%]": 55.9}
{"SMILES": "C=CC(=O)Nc1cccc(Nc2nc(Nc3ccc(N4CCN(C(C)=O)CC4)cc3OC)ncc2C(F)(F)F)c1", "viability [%]": 20}
{"SMILES": "Nc1ccn([C@@H]2O[C@H](CO)[C@@H](O)C2(F)F)c(=O)n1", "viability [%]": 82.5}
{"SMILES": "CC(Cc1cccc(C(F)(F)F)c1)NCCOC(=O)c1ccccc1 (centres unmarked)", "viability [%]": 16.5}
{"SMILES": "CC(=O)CCCCn1c(=O)c2c(ncn2C)n(C)c1=O", "viability [%]": 77}
{"SMILES": "CO[C@]12C[C@@H](COC(=O)c3cncc(Br)c3)CN(C)[C@@H]1Cc1cn(C)c3cccc2c13", "viability [%]": 18.6}
{"data": "Set 2", "SMILES": "COc1ccc(-c2cnc3c(-c4ccsc4)cnn3c2)cc1", "read-out": "enzyme activity", "action": "inhibitor", "concentration": "0.5 µM", "relative to": "control"}
{"target": "Dual specificity protein kinase CLK4 (CLK4, Homo sapiens, UniProt Q9HAZ1)", "remaining activity": "62%"}
{"target": "Serine/threonine-protein kinase MRCK beta (CDC42BPB, Homo sapiens, UniProt Q9Y5S2)", "remaining activity": "83.4%"}
{"target": "Discoidin domain-containing receptor 2 (DDR2, Homo sapiens, UniProt Q16832)", "remaining activity": "98.2%"}
{"target": "Tyrosine-protein kinase TXK (TXK, Homo sapiens, UniProt P42681)", "remaining activity": "85.2%"}
{"target": "Mitogen-activated protein kinase 14 (MAPK14, Homo sapiens, UniProt Q16539)", "remaining activity": "120%"}
{"target": "RAC-beta serine/threonine-protein kinase (AKT2, Homo sapiens, UniProt P31751)", "remaining activity": "93.3%"}
{"target": "Rho-associated protein kinase 1 (ROCK1, Homo sapiens, UniProt Q13464)", "remaining activity": "95.7%"}
{"target": "Dual specificity protein kinase CLK3 (CLK3, Homo sapiens, UniProt P49761)", "remaining activity": "100%"}
{"target": "Serine/threonine-protein kinase PLK3 (PLK3, Homo sapiens, UniProt Q9H4B4)", "remaining activity": "98%"}
{"target": "Mitogen-activated protein kinase 1 (MAPK1, Homo sapiens, UniProt P28482)", "remaining activity": "99.2%"}
{"target": "Mitogen-activated protein kinase 11 (MAPK11, Homo sapiens, UniProt Q15759)", "remaining activity": "84.1%"}
{"target": "Serine/threonine-protein kinase MARK2 (MARK2, Homo sapiens, UniProt Q7KZI7)", "remaining activity": "82.1%"}
{"target": "Ribosomal protein S6 kinase alpha-4 (RPS6KA4, Homo sapiens, UniProt O75676)", "remaining activity": "98.7%"}
{"target": "Cyclin-dependent kinase 9, with cyclin K (CDK9, Homo sapiens, UniProt P50750)", "remaining activity": "76.9%"}
{"data": "Set 3", "cell line": "mouse MPNST tumor cells", "technique": "high-content nuclear imaging", "item": "cell number", "concentration": "10 µM", "time": "12 h", "notes": "mean of 2 replicates", "relative to": "plate mean", "reading": "higher = more cells"}
{"Compound": "CCCCN(CCCC)CCCOC(=O)c1ccc(N)cc1", "nuclei count": "0.584 z-score"}
{"Compound": "COC1=CC(=O)C[C@@H](C)[C@]12Oc1c(Cl)c(OC)cc(OC)c1C2=O", "nuclei count": "-1.47 z-score"}
{"Compound": "CCOc1ccc(Nc2nc(-c3c(C)nc4ccccn34)cs2)cc1", "nuclei count": "-3.08 z-score"}
{"Compound": "COc1ccc([C@@H]2Sc3ccccc3N(CCN(C)C)C(=O)[C@@H]2OC(C)=O)cc1", "nuclei count": "3.61 z-score and 3.18 z-score"}
{"Compound": "CC(C)(Cc1ccc2ccccc2c1)NC[C@@H](O)COc1cccc(Cl)c1C#N", "nuclei count": "-6.56 z-score"}
{"Compound": "CC(C)C(=O)c1c(C(C)C)nn2ccccc12", "nuclei count": "1.37 z-score and 1.59 z-score"}
{"Compound": "CNC1CCC(N(Cc2cc(-c3ccncc3)ccc2OC)C(=O)c2sc3c(F)ccc(F)c3c2Cl)CC1 (centres unmarked)", "nuclei count": "-5.43 z-score"}
{"Compound": "CO[C@@]1(NC(=O)CSCC#N)C(=O)N2C(C(=O)O)=C(CSc3nnnn3C)CS[C@@H]21", "nuclei count": "-0.807 z-score"}
{"Compound": "C#C[C@]1(OC(C)=O)CC[C@H]2[C@@H]3CCC4=CC(=NO)CC[C@@H]4[C@H]3CC[C@@]21CC (mixture of isomers)", "nuclei count": "0.234 z-score"}
{"data": "Set 4", "SMILES": "Nc1c(C(=O)NCc2ccc(C(=O)NCCCC3CCCCC3)cc2)cnn1-c1ccccc1", "read-out": "cell-free assay", "technique": "competition with immobilised ligand", "concentration": "0.1 µM"}
{"target": "Transient receptor potential cation channel subfamily M member 6 (TRPM6, Homo sapiens, UniProt Q9BX84)", "remaining binding": "100%"}
{"target": "Serine/threonine-protein kinase WNK2 (WNK2, Homo sapiens, UniProt Q9Y3S1)", "remaining binding": "100%"}
{"target": "Serine/threonine-protein kinase 33 (STK33, Homo sapiens, UniProt Q9BYT3)", "remaining binding": "96%"}
{"target": "Serine/threonine-protein kinase TAO2 (TAOK2, Homo sapiens, UniProt Q9UL54)", "remaining binding": "100%"}
{"target": "Tyrosine-protein kinase ABL1, non-phosphorylated (ABL1, Homo sapiens, UniProt P00519, H396P)", "remaining binding": "80%"}
{"target": "Cyclin-dependent kinase 11B (CDK11B, Homo sapiens, UniProt P21127)", "remaining binding": "100%"}
{"note": "Excerpt of the above (set 3):"}
{"Compound": "COc1ccc([C@@H]2Sc3ccccc3N(CCN(C)C)C(=O)[C@@H]2OC(C)=O)cc1", "nuclei count": "3.61 z-score and 3.18 z-score"}
{"Compound": "CC(C)(Cc1ccc2ccccc2c1)NC[C@@H](O)COc1cccc(Cl)c1C#N", "nuclei count": "-6.56 z-score"}
{"Compound": "CCOc1ccc(Nc2nc(-c3c(C)nc4ccccn34)cs2)cc1", "nuclei count": "-3.08 z-score"}
